# Measurements from different studies.
# Amino acid sequences for entries named in this document (tags omitted). Residues count along the entry.
# UniProt P09958, whole entry, looked up: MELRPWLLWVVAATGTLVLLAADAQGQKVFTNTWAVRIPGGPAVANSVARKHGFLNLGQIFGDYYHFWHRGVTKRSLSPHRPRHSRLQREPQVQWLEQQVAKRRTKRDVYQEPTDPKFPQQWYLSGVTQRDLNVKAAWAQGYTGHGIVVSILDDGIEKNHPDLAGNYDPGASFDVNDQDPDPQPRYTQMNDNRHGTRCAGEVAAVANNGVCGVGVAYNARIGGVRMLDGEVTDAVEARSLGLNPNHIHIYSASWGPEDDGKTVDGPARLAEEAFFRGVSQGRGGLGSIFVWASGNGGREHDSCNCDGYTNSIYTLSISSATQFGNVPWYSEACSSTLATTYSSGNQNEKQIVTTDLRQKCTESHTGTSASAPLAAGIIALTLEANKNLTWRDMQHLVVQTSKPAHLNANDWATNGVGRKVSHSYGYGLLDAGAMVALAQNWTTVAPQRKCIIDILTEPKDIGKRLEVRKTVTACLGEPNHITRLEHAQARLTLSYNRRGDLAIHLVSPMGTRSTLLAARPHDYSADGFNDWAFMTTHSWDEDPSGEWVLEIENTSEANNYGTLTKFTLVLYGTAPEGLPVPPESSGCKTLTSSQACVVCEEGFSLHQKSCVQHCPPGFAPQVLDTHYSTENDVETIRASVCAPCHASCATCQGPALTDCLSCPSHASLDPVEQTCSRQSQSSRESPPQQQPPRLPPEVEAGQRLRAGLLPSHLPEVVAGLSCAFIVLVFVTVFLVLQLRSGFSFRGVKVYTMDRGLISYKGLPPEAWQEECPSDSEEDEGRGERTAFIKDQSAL
# UniProt P18031, 1-321 limits assumed: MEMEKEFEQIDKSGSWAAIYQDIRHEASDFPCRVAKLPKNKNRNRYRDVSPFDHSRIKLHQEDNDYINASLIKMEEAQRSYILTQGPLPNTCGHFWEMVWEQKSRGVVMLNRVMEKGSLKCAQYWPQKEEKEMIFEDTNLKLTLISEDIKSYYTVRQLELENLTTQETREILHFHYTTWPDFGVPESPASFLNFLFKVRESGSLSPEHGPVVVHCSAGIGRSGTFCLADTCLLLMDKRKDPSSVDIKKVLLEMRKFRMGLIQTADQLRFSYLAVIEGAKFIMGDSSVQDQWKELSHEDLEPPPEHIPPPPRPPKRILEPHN
# UniProt Q585F3, whole entry, looked up: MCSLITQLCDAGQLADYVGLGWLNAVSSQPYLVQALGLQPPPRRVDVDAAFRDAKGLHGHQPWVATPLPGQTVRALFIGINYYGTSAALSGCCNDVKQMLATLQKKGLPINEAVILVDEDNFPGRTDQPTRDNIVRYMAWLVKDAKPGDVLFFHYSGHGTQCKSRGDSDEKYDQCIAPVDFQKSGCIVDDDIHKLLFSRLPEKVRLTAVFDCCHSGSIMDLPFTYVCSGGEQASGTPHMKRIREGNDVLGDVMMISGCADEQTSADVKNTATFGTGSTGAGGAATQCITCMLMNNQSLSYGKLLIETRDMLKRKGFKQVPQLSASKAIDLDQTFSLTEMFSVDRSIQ
# UniProt F1M9V7, 1-920: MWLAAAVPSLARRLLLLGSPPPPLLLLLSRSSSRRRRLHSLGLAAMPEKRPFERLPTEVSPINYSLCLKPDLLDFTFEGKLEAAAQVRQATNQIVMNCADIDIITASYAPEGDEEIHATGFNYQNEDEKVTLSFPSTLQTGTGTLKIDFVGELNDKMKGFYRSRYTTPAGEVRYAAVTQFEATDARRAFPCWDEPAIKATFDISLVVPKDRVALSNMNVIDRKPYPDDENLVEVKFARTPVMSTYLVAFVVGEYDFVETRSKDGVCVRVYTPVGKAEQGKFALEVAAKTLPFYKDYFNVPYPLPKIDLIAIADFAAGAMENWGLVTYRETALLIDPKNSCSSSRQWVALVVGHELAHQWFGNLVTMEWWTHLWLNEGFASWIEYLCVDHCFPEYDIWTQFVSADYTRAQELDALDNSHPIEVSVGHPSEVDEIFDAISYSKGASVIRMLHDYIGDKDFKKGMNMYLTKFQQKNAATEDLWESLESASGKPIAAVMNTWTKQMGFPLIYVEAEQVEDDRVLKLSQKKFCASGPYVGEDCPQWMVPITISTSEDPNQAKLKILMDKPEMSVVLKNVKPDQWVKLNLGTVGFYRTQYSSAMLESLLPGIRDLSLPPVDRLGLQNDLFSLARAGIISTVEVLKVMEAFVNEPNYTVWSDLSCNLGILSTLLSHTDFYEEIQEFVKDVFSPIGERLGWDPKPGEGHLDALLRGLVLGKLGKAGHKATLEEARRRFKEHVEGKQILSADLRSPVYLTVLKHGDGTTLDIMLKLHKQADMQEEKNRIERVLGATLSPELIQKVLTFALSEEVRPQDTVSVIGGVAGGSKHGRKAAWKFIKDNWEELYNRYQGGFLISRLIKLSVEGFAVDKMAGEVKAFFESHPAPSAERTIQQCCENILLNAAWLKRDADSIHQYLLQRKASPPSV
# UniProt P54292, whole entry: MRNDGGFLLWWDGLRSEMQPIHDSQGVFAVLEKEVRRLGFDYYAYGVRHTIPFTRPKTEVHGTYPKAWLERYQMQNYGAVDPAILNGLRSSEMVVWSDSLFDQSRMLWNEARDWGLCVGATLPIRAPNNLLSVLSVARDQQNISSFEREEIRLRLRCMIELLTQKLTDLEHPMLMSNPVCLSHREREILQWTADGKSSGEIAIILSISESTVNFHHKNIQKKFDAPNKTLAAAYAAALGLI
# UniProt P55210, whole entry, looked up: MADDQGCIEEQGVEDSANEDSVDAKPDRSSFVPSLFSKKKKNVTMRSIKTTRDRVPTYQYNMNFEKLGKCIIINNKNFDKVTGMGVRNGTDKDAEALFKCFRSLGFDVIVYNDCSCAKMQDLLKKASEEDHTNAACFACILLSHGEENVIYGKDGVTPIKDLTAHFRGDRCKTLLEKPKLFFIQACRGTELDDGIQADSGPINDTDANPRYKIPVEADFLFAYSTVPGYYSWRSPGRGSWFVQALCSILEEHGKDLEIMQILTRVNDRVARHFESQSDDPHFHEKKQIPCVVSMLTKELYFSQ
# UniProt P42574, whole entry, looked up: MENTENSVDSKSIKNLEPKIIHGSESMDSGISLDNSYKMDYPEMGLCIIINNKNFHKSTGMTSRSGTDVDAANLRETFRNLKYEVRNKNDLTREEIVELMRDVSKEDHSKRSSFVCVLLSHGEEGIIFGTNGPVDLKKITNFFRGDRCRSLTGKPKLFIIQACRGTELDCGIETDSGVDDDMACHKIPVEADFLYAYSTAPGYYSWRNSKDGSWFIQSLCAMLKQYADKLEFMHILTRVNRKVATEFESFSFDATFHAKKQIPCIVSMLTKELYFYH
# UniProt Q99816, whole entry, looked up: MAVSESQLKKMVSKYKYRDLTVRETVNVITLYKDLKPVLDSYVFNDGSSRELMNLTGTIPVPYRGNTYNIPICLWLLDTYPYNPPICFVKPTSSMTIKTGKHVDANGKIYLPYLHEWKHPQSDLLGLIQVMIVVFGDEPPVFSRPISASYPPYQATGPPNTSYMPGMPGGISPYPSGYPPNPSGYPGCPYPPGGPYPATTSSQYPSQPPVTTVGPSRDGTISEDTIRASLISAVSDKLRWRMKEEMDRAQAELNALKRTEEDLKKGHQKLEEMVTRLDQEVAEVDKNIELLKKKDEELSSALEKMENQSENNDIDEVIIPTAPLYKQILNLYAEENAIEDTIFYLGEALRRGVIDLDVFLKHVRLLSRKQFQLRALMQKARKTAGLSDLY
# UniProt Q9GZZ6, 25-450 limits assumed: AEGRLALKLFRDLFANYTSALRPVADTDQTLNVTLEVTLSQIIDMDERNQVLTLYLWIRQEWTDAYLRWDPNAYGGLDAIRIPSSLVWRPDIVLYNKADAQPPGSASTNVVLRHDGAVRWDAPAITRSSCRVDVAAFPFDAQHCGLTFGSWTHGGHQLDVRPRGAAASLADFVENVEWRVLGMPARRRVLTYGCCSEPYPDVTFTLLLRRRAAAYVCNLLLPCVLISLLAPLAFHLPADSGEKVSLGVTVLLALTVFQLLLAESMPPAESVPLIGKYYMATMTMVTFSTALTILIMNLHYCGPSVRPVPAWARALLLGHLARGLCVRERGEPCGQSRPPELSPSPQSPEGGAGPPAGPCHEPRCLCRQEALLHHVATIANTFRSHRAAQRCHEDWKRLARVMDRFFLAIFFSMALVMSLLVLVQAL
# UniProt Q9UGM1, 26-479 limits assumed: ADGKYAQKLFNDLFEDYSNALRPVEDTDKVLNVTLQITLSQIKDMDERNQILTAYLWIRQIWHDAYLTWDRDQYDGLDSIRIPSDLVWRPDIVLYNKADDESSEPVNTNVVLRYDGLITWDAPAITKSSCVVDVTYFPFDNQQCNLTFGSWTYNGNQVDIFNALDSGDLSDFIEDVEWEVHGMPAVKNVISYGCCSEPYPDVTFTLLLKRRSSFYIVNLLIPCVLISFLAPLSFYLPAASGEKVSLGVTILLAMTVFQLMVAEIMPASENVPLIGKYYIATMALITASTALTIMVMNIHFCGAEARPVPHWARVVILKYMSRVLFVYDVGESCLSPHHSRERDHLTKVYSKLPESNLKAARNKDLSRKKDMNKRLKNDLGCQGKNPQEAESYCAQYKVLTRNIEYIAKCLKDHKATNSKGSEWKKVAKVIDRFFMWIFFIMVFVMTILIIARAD
# ± marks the error that the study gave.
# FURIN: Furin (FURIN, Homo sapiens, UniProt P09958)
# PTPN1: Tyrosine-protein phosphatase non-receptor type 1 (PTPN1, Homo sapiens, UniProt P18031)
# MCA2: Metacaspase-2 (MCA2, Trypanosoma brucei brucei, UniProt Q585F3)
# HLA class I histocompatibility antigen, A alpha chain allele A*80:01: HLA class I histocompatibility antigen, A alpha chain, allele A*80:01 (Homo sapiens, UniProt P04439)
SMILES,target or system,assay,test system,conditions,scale,measurement,value
CC(C)C[C@H](NC(=O)[C@H](CC(N)=O)NC(=O)c1ccccc1N)C(=O)N[C@@H](CCCNC(=N)N)C(=O)N[C@@H](CCCNC(=N)N)C(=O)N[C@@H](CCCNC(=N)N)C(=O)N[C@@H](CCCNC(=N)N)C(=O)N[C@@H](CC(=O)O)C(=O)N[C@@H](CC(C)C)C(=O)N[C@H](C(=O)N[C@@H](CC(=O)O)C(=O)N[C@@H](CCC(N)=O)C(=O)NCCNc1ccc([N+](=O)[O-])cc1[N+](=O)[O-])C(C)C,FURIN,substrate,,pH 7,,kcat,1.8 s⁻¹
CC(=O)N[C@@H](C)C(=O)N[C@@H](CO)C(=O)N[C@@H](CO)C(=O)N[C@@H](CC(=O)O)C(=O)N[C@@H](CCC(=O)O)C(=O)N[C@@H](Cc1ccc(OP(=O)(O)O)cc1)C(=O)N[C@@H](C)C(=O)N[C@@H](C)C(N)=O,PTPN1,substrate,,"pH 7.4, catalytic domain",,kcat,31 ± 1 s⁻¹
CC(C)C[C@H](NC(=O)[C@H](Cc1ccccc1)NC(=O)CNC(=O)CNC(=O)[C@@H](N)Cc1ccc(O)cc1)C(=O)O,"Puromycin-sensitive aminopeptidase (Rattus norvegicus, UniProt F1M9V7)",substrate,,"rat enzyme, MW 100 kDa",,kcat,12.9 s⁻¹
CC(C)[C@H](NC(=O)c1ccccc1N)C(=O)N[C@@H](C)C(=O)N[C@@H](CCCNC(=N)N)C(=O)N[C@@H](CO)C(=O)N[C@@H](CO)C(=O)N[C@@H](C)C(=O)N[C@@H](CCC(N)=O)C(=O)NCCNc1ccc([N+](=O)[O-])cc1[N+](=O)[O-],MCA2,"enzyme activity, substrate, FRET hydrolysis",Trypanosoma brucei,pH 7.4,,Km,1.2 µM
CC(=O)N[C@@H](CC(=O)O)C(=O)N[C@H](C(=O)N[C@@H](C)C(=O)N[C@@H](CC(=O)O)C(=O)N[C@H](C(=O)N[C@@H](Cc1ccc(OP(=O)(O)O)cc1)C(=O)N[C@@H](C)C(=O)N[C@@H](C)C(N)=O)C(C)C)[C@@H](C)O,PTPN1,"substrate, continuous UV",,pH 7.4,,kcat/Km,3.5e+06 M⁻¹ s⁻¹
CC[C@H](C)[C@H](NC(=O)[C@H](CO)NC(=O)[C@@H](NC(=O)[C@H](CO)NC(=O)[C@H](CCCNC(=N)N)NC(=O)[C@H](CCCNC(=N)N)NC(=O)[C@H](CCC(N)=O)NC(=O)[C@H](CCCNC(=N)N)NC(=O)[C@H](Cc1c[nH]cn1)NC(=O)[C@H](Cc1c[nH]cn1)NC(=O)c1ccccc1N)C(C)C)C(=O)N[C@@H](CCC(N)=O)C(=O)NCCNc1ccc([N+](=O)[O-])cc1[N+](=O)[O-],FURIN,substrate,,pH 7,,kcat,40 s⁻¹
O=C(N[C@H]1CCOC1=O)C1CCCC1,"rhlR (Pseudomonas aeruginosa, UniProt P54292)","reporter gene, agonist, rhlI-lacZ reporter",Escherichia coli reporter strain,,,Emax,100%
CC(C)[C@H](NC(=O)[C@H](CCC(N)=O)NC(=O)[C@H](CC(=O)O)NC(=O)[C@H](Cc1c[nH]c2ccccc12)NC(=O)[C@@H](N)Cc1ccc(O)cc1)C(=O)N[C@H](C(=O)N[C@@H](Cc1ccccc1)C(=O)N[C@@H](Cc1ccccc1)C(=O)N[C@@H](Cc1ccc(O)cc1)C(=O)O)[C@@H](C)O,"HLA class I histocompatibility antigen, A alpha chain allele A*80:01",,,,direction not given,z-score,-2.3
C[C@H](NC(=O)CNC(=O)[C@H](CO)NC(=O)[C@H](CCCNC(=N)N)NC(=O)[C@H](C)NC(=O)[C@H](CCCCN)NC(=O)c1ccccc1N)C(=O)N[C@@H](CCC(N)=O)C(=O)NCCNc1ccc([N+](=O)[O-])cc1[N+](=O)[O-],MCA2,"enzyme activity, substrate, FRET hydrolysis",Trypanosoma brucei,pH 7.4,,Km,1.51 µM
CSCC[C@H](NC(=O)[C@@H](N)CC(C)C)C(=O)N[C@@H](CCCNC(=N)N)C(=O)NCC(=O)N[C@H](C(=O)N[C@@H](CCCCN)C(=O)N[C@@H](Cc1c[nH]c2ccccc12)C(=O)N[C@@H](CC(C)C)C(=O)N[C@@H](CCCCN)C(=O)O)C(C)C,"HLA class I histocompatibility antigen, A alpha chain allele A*80:01",,,,direction not given,z-score,0.249
CC(C)[C@H](NC(=O)CNC(=O)[C@H](COP(=O)(O)O)NC(=O)[C@@H](NC(=O)[C@H](CCC(=O)O)NC(=O)[C@H](CC(=O)O)NC(=O)CCNC(=O)Cc1cc(=O)oc2cc(N)ccc12)C(C)C)C(=O)N[C@@H](CCCCNc1ccc([N+](=O)[O-])cc1[N+](=O)[O-])C(=O)N[C@@H](CC(=O)O)C(N)=O,"Caspase-7 (CASP7, Homo sapiens, UniProt P55210)",substrate,,,baseline: caspase-3 over caspase-7,kcat/Km ratio,2.3 fold
CCOC(=O)c1c(-c2ccc(Cl)cc2Cl)n(-c2nc(-c3ccc(Cl)cc3)c3c(NC(=O)c4ccccc4)nnc-3[nH]2)[nH]c1=O,TK-10,SRB,,,,CC50,6.9 µM
CC(=O)N[C@@H](C)C(=O)N[C@H](C(=O)N[C@@H](Cc1c[nH]c2ccccc12)C(=O)N[C@@H](CCC(=O)O)C(=O)N[C@@H](Cc1ccccc1)C(=O)N[C@@H](Cc1ccc(OP(=O)(O)O)cc1)C(=O)N[C@@H](Cc1ccc(OP(=O)(O)O)cc1)C(=O)N[C@@H](C)C(=O)N[C@@H](C)C(N)=O)C(C)C,PTPN1,"substrate, continuous UV",,pH 7.4,,kcat/Km,8.9e+06 M⁻¹ s⁻¹
CC(C)C[C@H](NC(=O)[C@@H](N)C(C)C)C(=O)N[C@@H](CCCNC(=N)N)C(=O)N[C@@H](C)C(=O)N[C@@H](CS)C(=O)N[C@@H](Cc1c[nH]c2ccccc12)C(=O)N[C@@H](CC(N)=O)C(=O)N[C@@H](CCC(=O)O)C(=O)N[C@@H](CCCCN)C(=O)O,"HLA class I histocompatibility antigen, A alpha chain allele A*80:01",,,,direction not given,z-score,0.38
CC[C@H](C)[C@H](NC(=O)[C@@H](NC(=O)[C@H](CC(=O)O)NC(=O)CNC(=O)[C@@H](NC(=O)[C@H](CC(=O)O)NC(=O)[C@H](CCSC)NC(=O)[C@H](CCC(=O)O)NC(=O)[C@H](CC(=O)O)NC(=O)[C@@H](NC(=O)CCNC(=O)Cc1cc(=O)oc2cc(N)ccc12)C(C)C)[C@@H](C)OP(=O)(O)O)[C@@H](C)O)C(=O)N[C@@H](CCCCNc1ccc([N+](=O)[O-])cc1[N+](=O)[O-])C(N)=O,"Caspase-3 (CASP3, Homo sapiens, UniProt P42574)",substrate,,,baseline: unphosphorylated substrate over phosphorylated,kcat/Km decrease,> 530 fold
CC(C)[C@H](NC(=O)[C@H](Cc1c[nH]cn1)NC(=O)c1ccccc1N)C(=O)N[C@@H](CCCNC(=N)N)C(=O)N[C@@H](CCCCN)C(=O)N[C@@H](CCCNC(=N)N)C(=O)N[C@@H](CCCNC(=N)N)C(=O)N[C@@H](C)C(=O)N[C@@H](CC(=O)O)C(=O)N1CCC[C@H]1C(=O)N[C@@H](CC(=O)O)C(=O)N[C@@H](CCC(N)=O)C(=O)NCCNc1ccc([N+](=O)[O-])cc1[N+](=O)[O-],FURIN,substrate,,pH 7,,Km,9.1 µM
COP(=O)(OC)Oc1ccc([N+](=O)[O-])cc1Cl,carboxylesterase (rat),"enzyme activity, inhibitor","rat, postnatal day 70, rat liver homogenate",with: p-nitrophenyl valerate,,IC50,0.066 µM
CC(C)[C@H](NC(=O)[C@H](CCCNC(=N)N)NC(=O)CN)C(=O)N[C@H](C(=O)N[C@@H](CCC(=O)O)C(=O)N1CCC[C@H]1C(=O)N[C@@H](CO)C(=O)N[C@@H](C)C(=O)N1CCC[C@H]1C(=O)N1CCC[C@H]1C(=O)N[C@@H](Cc1c[nH]c2ccccc12)C(=O)N[C@@H](CCC(=O)O)C(=O)NCC(=O)N1CCC[C@H]1C(=O)O)C(C)C,"Tumor susceptibility gene 101 protein, UEV domain (Homo sapiens, UniProt Q99816)",thermal stability,,800 µM,"baseline: free protein, higher = stabilisation",Tm shift,3.7 °C
N#Cc1c(-c2ccc(Cl)cc2Cl)n(-c2nc(-c3ccc(Cl)cc3)c3c(NC(=O)c4ccccc4)nnc-3[nH]2)[nH]c1=O,UO-31,SRB,,,,CC50,> 100 µM
CC[C@H](C)[C@H](NC(=O)[C@H](Cc1c[nH]cn1)NC(=O)CNC(=O)[C@H](CCC(=O)O)NC(=O)[C@H](CC(C)C)NC(=O)[C@H](CC(=O)O)NC(=O)[C@H](CC(C)C)NC(=O)[C@@H](N)CC(C)C)C(=O)N[C@@H](CC(C)C)C(=O)O,"HLA class I histocompatibility antigen, A alpha chain allele A*80:01",,,,direction not given,z-score,0.38
CC(=O)N[C@@H](C)C(=O)N[C@@H](CCCCN)C(=O)N[C@@H](Cc1ccccc1)C(=O)N[C@@H](CCC(=O)O)C(=O)N[C@@H](CC(=O)O)C(=O)N[C@H](C(=O)N[C@@H](Cc1ccc(OP(=O)(O)O)cc1)C(=O)N[C@@H](C)C(=O)N[C@@H](C)C(N)=O)[C@@H](C)O,PTPN1,"substrate, continuous UV",,pH 7.4,,kcat/Km,4.9e+06 M⁻¹ s⁻¹
CC(C)C[C@H](NC(=O)c1ccccc1N)C(=O)N[C@@H](CCCCN)C(=O)N[C@@H](CCCNC(=N)N)C(=O)N[C@@H](CCCNC(=N)N)C(=O)N[C@@H](CCCNC(=N)N)C(=O)N[C@@H](CCCNC(=N)N)C(=O)N[C@@H](CC(=O)O)C(=O)N[C@H](C(=O)N[C@@H](CCC(N)=O)C(=O)N[C@@H](CCC(N)=O)C(=O)N[C@@H](CCC(N)=O)C(=O)NCCNc1ccc([N+](=O)[O-])cc1[N+](=O)[O-])[C@@H](C)O,FURIN,substrate,,pH 7,,kcat,3.6 s⁻¹
CC[C@H](C)[C@@H]1NC(=O)[C@H](CCC(=O)O)NC(=O)[C@@H]2CCCN2C(=O)[C@H](Cc2c[nH]cn2)NC(=O)[C@H](CCCNC(=N)N)NC(=O)[C@H](C(C)C)NC(=O)[C@H](CC(N)=O)NC(=O)[C@@H]2CSSC[C@H](NC(=O)CN)C(=O)N[C@@H](CSSC[C@@H](C(N)=O)NC1=O)C(=O)N[C@@H](CO)C(=O)N[C@@H](Cc1c[nH]cn1)C(=O)N1CCC[C@H]1C(=O)N[C@@H](C(C)C)C(=O)N2,"Neuronal acetylcholine receptor; alpha9/alpha10 (Homo sapiens, UniProt Q9GZZ6+Q9UGM1)","ion current, antagonist, two-electrode voltage clamp",Xenopus oocytes,"human, with: ACh 100 µM",,IC50,> 10 µM

# Excerpt of the above:
SMILES,target or system,assay,test system,conditions,scale,measurement,value
N#Cc1c(-c2ccc(Cl)cc2Cl)n(-c2nc(-c3ccc(Cl)cc3)c3c(NC(=O)c4ccccc4)nnc-3[nH]2)[nH]c1=O,UO-31,SRB,,,,CC50,> 100 µM
O=C(N[C@H]1CCOC1=O)C1CCCC1,"rhlR (Pseudomonas aeruginosa, UniProt P54292)","reporter gene, agonist, rhlI-lacZ reporter",Escherichia coli reporter strain,,,Emax,100%
CC(C)C[C@H](NC(=O)[C@H](CC(N)=O)NC(=O)c1ccccc1N)C(=O)N[C@@H](CCCNC(=N)N)C(=O)N[C@@H](CCCNC(=N)N)C(=O)N[C@@H](CCCNC(=N)N)C(=O)N[C@@H](CCCNC(=N)N)C(=O)N[C@@H](CC(=O)O)C(=O)N[C@@H](CC(C)C)C(=O)N[C@H](C(=O)N[C@@H](CC(=O)O)C(=O)N[C@@H](CCC(N)=O)C(=O)NCCNc1ccc([N+](=O)[O-])cc1[N+](=O)[O-])C(C)C,FURIN,substrate,,pH 7,,kcat,1.8 s⁻¹
